# Results of several laboratories.
# Protocols differ between the studies behind these lines.
# Cell line: TK-10
Structure (SMILES),effect on,technique,concentration,time,relative to,quantity,result
COc1cc(CNC(=O)C[C@H](C)CCC=C(C)C)ccc1OCc1cn(-c2ccc([N+](=O)[O-])cc2)nn1,,SRB,10 µM,48 h,,growth percent,105%
COc1ccc2c(c1)/C(=N\Nc1nnc3n1N=C(c1ccccc1)CS3)C(=O)N2,cell growth or viability,SRB,10 µM,,,inhibition,29%
CC(Cc1ccc(Cl)cc1)=C(c1ccc(Cl)cc1)c1ccc(OCCN(C)C)cc1,cell growth or viability,,,,,GI50,5.1 µM
CC(=O)OC[C@H]1O[C@@H](Sc2sc(C(=O)c3ccc(C)cc3)c(N)c2-c2nc3ccccc3s2)[C@H](OC(C)=O)[C@@H](OC(C)=O)[C@@H]1OC(C)=O,,SRB,10 µM,48 h,untreated,growth,99.3%
CC/C=C\C/C=C\C/C=C\C/C=C\C/C=C\C/C=C\CCC(=O)Nc1ccn(C2OC(CO)C(O)C2(F)F)c(=O)n1 (stereo not drawn),,NCI60 screen,,,,TGI,29.4 µM
COc1cc(CNC(=O)C[C@H](C)CCC=C(C)C)ccc1OCc1cn(-c2ccc(C#N)cc2)nn1,,SRB,10 µM,48 h,,growth percent,105%
CCC(=C(c1ccc(Cl)cc1)c1ccc(OCCCN(C)C)cc1)c1ccc(OC)cc1,cell growth or viability,,,,,GI50,6.23 µM
CC(=O)OC[C@H]1O[C@@H](Sc2sc(C(=O)c3ccc(Br)cc3)c(N)c2-c2nc3ccccc3s2)[C@H](OC(C)=O)[C@@H](OC(C)=O)[C@H]1OC(C)=O,,SRB,10 µM,48 h,untreated,growth,128%
COc1cc(CNC(=O)C[C@H](C)CCC=C(C)C)ccc1OCc1cn(-c2ccc(Cl)cc2Cl)nn1,,SRB,10 µM,48 h,,growth percent,68.7%

# Repeated from above:
Structure (SMILES),effect on,technique,concentration,time,relative to,quantity,result
CC(=O)OC[C@H]1O[C@@H](Sc2sc(C(=O)c3ccc(Br)cc3)c(N)c2-c2nc3ccccc3s2)[C@H](OC(C)=O)[C@@H](OC(C)=O)[C@H]1OC(C)=O,,SRB,10 µM,48 h,untreated,growth,128%
